# Measured values pooled from the literature.
# Compare with care: the assays were run in different laboratories. Several values in a cell are separate wells, animals, samples, runs or records.
# Target: Tyrosine-protein kinase ZAP-70 (ZAP70, Homo sapiens, UniProt P43403)
assay,setting,how to read,endpoint,result,Compound
"kinase activity, inhibitor",1 µM,reference: untreated control,remaining activity,102%,COc1c(OCCCN2CCOCC2)ccc2c1N=C(NC(=O)c1cnc(N)nc1)N1CCN=C21
"enzyme activity, inhibitor, FRET",1 µM,,inhibition,3%,C[C@H]1CN(C(=O)c2cn(-c3ccnc(N)n3)c3cc(C#CC4(O)CCCCC4)ccc23)CCN1
"enzyme activity, inhibitor",1 µM,,inhibition,52%,Cc1nc2c(F)cc(-c3nc(Nc4ccc(CNC(=O)CCCCCCC(=O)NO)cc4)ncc3F)cc2n1C(C)C
"enzyme activity, inhibitor",10 µM,,inhibition,0%,Cc1cccc(O[C@H]2CCC[C@@H](C(C)CNCc3ccncc3)C2)c1 (relative stereo)
"enzyme activity, inhibitor",0.1 µM,,inhibition,28%,C=CC(=O)Nc1cccc(-c2cnc3[nH]cc(C(=O)NC(C)(C)C)c3n2)c1
"enzyme activity, inhibitor",0.1 µM,,inhibition,14%,CN1CCN(Cc2ccc(-c3ccc(CO[C@H]4CCC[C@@H]4NC(=O)c4cc(-c5cnn(C)c5)cnc4N)cc3)cc2)CC1
"binding, competition with immobilised ligand",10 µM,,remaining binding,93%,COc1ccc(NC(=O)Nc2ccc3c(c2)C(=O)N(C(C)CO)CC(C)C(CN(C)Cc2ccc4c(c2)OCO4)O3)cc1 (stereo not shown)
enzyme activity,"100 nM, human enzyme, together with: 10 µM ATP",reference: untreated,remaining activity,123%,O=C=[N][Ru-4]123([n]4c5ccc(O)cc5c5c6c(c7cc(F)c[n+]1c7c54)C(=O)NC6=O)[S+]1CC[S+]2CC[S+]3CC1 (stereo not shown)
"cell-free assay, competition with immobilised ligand",1 µM,,remaining binding,85%,C=CC(=O)N1CCCC(n2c(=O)c3ncccc3n(Cc3ccc(Oc4ccccc4)cc3)c2=O)C1 (stereo not shown)
"binding, competition with immobilised ligand",0.1 µM,,remaining binding,89%,Cc1cnc2nc1Nc1cccc(c1)COC/C=C/COCc1cc(ccc1OCCN1CCOCC1)N2
"enzyme activity, inhibitor",1 µM,,inhibition,7%,CN1CC[C@@H](COc2cnc(C#N)cc2-c2ccn3nc(NC(=O)C4CC4)cc3c2)C1
"kinase activity, inhibitor, ProQinase kinase profiling",25 µM,reference: control,remaining activity,100% and 97%,COCC12C(=O)NC3C4(C(OC)CC1O)C1CC5(O)C(OC)C(O)C(OC(C)=O)(C1C5OC(=O)c1ccccc1)C3(O)C(OC)C24 (stereo not shown)
"cell-free assay, competition with immobilised ligand",10 µM,,remaining binding,99%,C=C1CCCCCCCCCC(CO)C1=O (stereo not shown)
"enzyme activity, inhibitor",1 µM,,activity vs control,111%,CNC(=O)C[C@H](Cc1ccc(C#N)cc1)NC(=O)c1cc(-c2ccc(CN[C@H](C)c3ccc(C)cc3)o2)ccc1Cl
"binding, competition with immobilised ligand",10 µM,,remaining binding,100%,CNS(=O)(=O)Nc1nccc(Cc2c(C)c3ccc(Oc4ncccc4F)cc3oc2=O)c1F
"enzyme activity, inhibitor",10 µM,,inhibition,3%,NC(=O)[C@@H](O)C[C@H]1CCc2sc3ncnc(O[C@H]4CC[C@H](N5CCOCC5)CC4)c3c21
"cell-free assay, competition with immobilised ligand",50 nM,,remaining binding,78%,CN1CCN(Cc2ccc(NC(=O)c3cccc(C#Cc4cnc(N)c5ncccc45)c3)cc2C(F)(F)F)CC1
"binding, competition with immobilised ligand",1 µM,,remaining binding,95%,COc1cc(Nc2nc(C)cc(-c3cnn4nc(OC)ccc34)n2)cc(C(F)(F)F)c1
"cell-free assay, inhibitor",1 µM,,inhibition,4.3%,C=CC(=O)N1Cc2nc(-c3cc(-c4cc(Cl)cnc4Cl)c(F)cc3F)n(-c3ccncn3)c2C1

# Repeated from above:
assay,setting,how to read,endpoint,result,Compound
"kinase activity, inhibitor, ProQinase kinase profiling",25 µM,reference: control,remaining activity,100% and 97%,COCC12C(=O)NC3C4(C(OC)CC1O)C1CC5(O)C(OC)C(O)C(OC(C)=O)(C1C5OC(=O)c1ccccc1)C3(O)C(OC)C24 (stereo not shown)
"enzyme activity, inhibitor",1 µM,,activity vs control,111%,CNC(=O)C[C@H](Cc1ccc(C#N)cc1)NC(=O)c1cc(-c2ccc(CN[C@H](C)c3ccc(C)cc3)o2)ccc1Cl
